# Values quoted from earlier work, collected from citations in different studies.
# Protocols differ between the studies behind these lines. ± marks the error that the study gave.
# UniProt P14842, sequence (whole entry, looked up): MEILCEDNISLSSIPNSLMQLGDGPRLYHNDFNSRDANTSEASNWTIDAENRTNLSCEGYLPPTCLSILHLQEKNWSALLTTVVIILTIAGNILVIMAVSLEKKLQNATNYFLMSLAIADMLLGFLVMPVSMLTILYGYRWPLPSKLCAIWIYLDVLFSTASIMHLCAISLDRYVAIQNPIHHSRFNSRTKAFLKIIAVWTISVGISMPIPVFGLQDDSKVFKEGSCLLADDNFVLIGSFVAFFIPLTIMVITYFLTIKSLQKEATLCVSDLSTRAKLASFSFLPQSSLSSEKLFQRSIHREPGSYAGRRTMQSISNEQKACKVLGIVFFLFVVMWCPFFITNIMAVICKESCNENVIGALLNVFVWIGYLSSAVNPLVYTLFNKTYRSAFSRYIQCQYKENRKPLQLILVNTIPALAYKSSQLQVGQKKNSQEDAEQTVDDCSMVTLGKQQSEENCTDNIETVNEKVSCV
Compound,target,observed,action,measurement,value
CCCC(C)(C)c1ccc2c(c1)OC(C)(C)[C@@H]1CC=C(C)C[C@@H]21,"cannabinoid receptor 1, human",binding,,Ki,677 nM
CNC(C)C(=O)c1ccc(C)cc1 (stereo not drawn),dopamine transporter,,,Ki,3400 nM
CC(NC(C)(C)C)C(=O)c1cccc(Cl)c1 (stereo not drawn),nicotinic acetylcholine receptor α7,,antagonist,IC50,54000 nM
CCCCCn1c(C)c(C(=O)c2cccc3cc(OC)ccc23)c2ccccc21,CB1 receptor,binding,,Ki,250 nM
COc1cc(C[C@@H](C)N)c(OC)cc1I,"5-hydroxytryptamine receptor 2A (Rattus norvegicus, UniProt P14842)",,,EC50,19.8 nM
CC1=CCC2C(C1)c1c(O)cc(C(C)(C)CCCCCC#N)cc1OC2(C)C (stereo not drawn),CB1 receptor,binding,,Ki,0.19 nM
COC(=O)[C@@H]1C[C@H](OC(C)=O)C(=O)[C@H]2[C@@]1(C)CC[C@H]1C(=O)O[C@H](c3ccoc3)C[C@]21C,kappa opioid receptor V108L,,,Ki,4.1 ± 0.8 nM
NC(=O)c1c(Br)n([C@H]2O[C@@H](CO)[C@@H](O)[C@@H]2O)c2ncnc(N)c12,"Cyclin-dependent kinase 2 (CDK2, Homo sapiens, UniProt P24941)",,,IC50,61 nM
CCCCCCC(C)(C)c1cc(OC)c2c(c1)OC(C)(C)c1ccc(C(=O)OC)cc1-2,CB2 receptor,binding,,Ki,529 nM

# Excerpt of the above:
Compound,target,observed,action,measurement,value
NC(=O)c1c(Br)n([C@H]2O[C@@H](CO)[C@@H](O)[C@@H]2O)c2ncnc(N)c12,"Cyclin-dependent kinase 2 (CDK2, Homo sapiens, UniProt P24941)",,,IC50,61 nM
